# Assay results from different studies.
# “And” joins repeats or separate records; there may be more than shown. ± marks the error that the study gave.
Structure (SMILES),cell line,test,test system,setting,how to read,measurement,value
Oc1cc(O)cc(/C=C/c2ccc(O)c(O)c2)c1,OCI-Ly1,,,"0.5 µM, 120 h",,viability,153%
C=C(c1ccc(C(=O)O)cc1)c1cc2c(cc1C)C(C)(C)CCC2(C)C,COS-7,,,"100 µM, 24 h, 0.1% DMSO, unit not given",reference: control,necrosis,3.71 ± 1.94
COc1cc2c(NC3CCN(C(C)C)CC3)nc(N3CCC(F)(F)CC3)nc2cc1OCCCN1CCCC1,OCI-Ly1,,,"0.1 µM, 120 h",,viability,118%
COc1c(O[C@@H]2O[C@H](CO)[C@@H](O)[C@H](O)[C@H]2O)cc2c(c1O)C(=O)c1c(cc(C)c(O)c1OC)C2=O,HepaRG co-cultured with HK-2,MTT,,"33.33 µM, 24 h",reference: untreated control,cell viability,99.2 ± 9.48%
C[C@H]1[C@H](C)CC[C@]2(C)CC[C@]3(C)C(=CC(=O)[C@@H]4[C@@]5(C)CC[C@@H](O)[C@](C)(C(=O)NCc6cn(-c7cccc(Br)c7)nn6)[C@@H]5CC[C@]43C)[C@H]12,human PBMCs,flow cytometry,,5 µM,reference: CD8- T cells,PD-1 positive cells,16.1%
COc1cnc2cccc(N3CCc4c(cc(Cn5ccnc5C)cc4-c4cn(C)nc4C(F)(F)F)C3=O)c2c1,SNU1196,cell growth,,120 h,,EC50,> 30 µM
CC[C@@H]1/C=C/C=C/C[C@H](C)[C@@H](O)[C@](C)(O)C(=O)[C@@H](C)[C@H](O)[C@@H](C)C(=O)[C@H](C)[C@@H](O)[C@H](C)/C=C/C(=O)O[C@H]2[C@@H](C)[C@@H](CC1)O[C@@]1(CC[C@@H](C)[C@@H](C[C@H](C)O)O1)[C@@H]2C,NCI-H292,Seahorse XF24,,1 µM,reference: control,oxygen consumption rate,25 to 30%
O=C1c2cccc(O)c2C(=O)c2c(O)cc(CO)cc21,HepaRG co-cultured with HK-2,MTT,,"133.33 µM, 24 h",reference: untreated control,cell viability,115 ± 7.3%
CNCc1ccc(-c2[nH]c3cc(F)cc4c3c2CCNC4=O)cc1,OCI-Ly1,,,"1 µM, 120 h",,viability,160%
CCn1cc(-c2cc(Cn3ccoc3=N)cc3c2CCN([C@@H](C)c2cc(OC)ccn2)C3=O)c(C(F)(F)F)n1,HCC1954,"cell growth, inhibitor",,120 h,,EC50,2.71 µM
CC(C)C[C@H](NP(=O)(O)O[C@@H]1O[C@@H](C)[C@H](O)[C@@H](O)[C@H]1O)C(=O)N[C@@H](Cc1c[nH]c2ccccc12)C(=O)O,SH-SY5Y BACE1-overexpressing,ELISA,supernatant,"up to 1 µM, 72 h",reference: vehicle,Aβ level,no effect
C=CCNC1=C2C[C@@H](C)C[C@H](OC)[C@H](O)[C@@H](C)/C=C(\C)[C@H](OC(N)=O)[C@@H](OC)/C=C\C=C(/C)C(=O)NC(=CC1=O)C2=O,iPSC-derived cardiomyocytes,concentration-response fit,,,reference: vehicle,fitted bottom MyBP-C/MYH ratio,33.1%
Cc1cccc(-c2[nH]c(CNc3ccccc3F)nc2-c2ccc3ncnn3c2)n1,pomalidomide-resistant MM1.S cells,XTT,,1.5 µM,higher = more viable cells,XTT absorbance,2.3 E-1 and 2 E-1 and 2.4 E-1
O=C([C@@H](Cc1cccc(C(F)(F)F)c1)NS(=O)(=O)c1cc(F)c2c(c1)CCNC2)N1CCCC1,OCI-Ly1,,,"0.1 µM, 120 h",,viability,117%
O=C(/C=C/C=C/C=C/C1CCCCC1)NC1=C[C@@](O)(/C=C/C=C/C=C/C(=O)NC2=C(O)CCC2=O)[C@@H]2O[C@@H]2C1=O,HSC-4,"cell growth, CellTiter-Glo",,78 h,,GI50,13.3 µM
COc1cc2ncnc(Nc3ccc(Oc4ccccc4)cc3C)c2cc1OC,LoVo (KRAS G13D),"cell growth, resazurin",,"1 µM, 72 h, with: 0 nM trametinib",,viability,88.6%
N=C1NC(=O)/C(=C/c2ccc(O)cc2)S1,OCI-Ly1,,,"1 µM, 120 h",,viability,147%
Cn1cc(-c2ccc(-c3cncc(Cl)c3N3CCC4(CCNC4=O)CC3)cc2)cn1,COLO 205,"gene expression, microarray, refers to: PLOD1 mRNA",,"concentration not given, 6 h",reference: untreated cells,log2 fold change,2.17
Clc1ccc(C(c2c[nH]c3ccccc23)c2c[nH]c3ccccc23)cc1,COS-7,,,"30 µM, 24 h, 0.1% DMSO, unit not given",reference: vehicle control,apoptotic cells,7.1 ± 1.57
CCn1cc(-c2cc(Cn3ccnc3)cc3c2CCN([C@H](c2cc(OC)ccn2)C2CC2)C3=O)c(C(F)(F)F)n1,TE-11,"cell growth, inhibitor",,120 h,,EC50,3.48 µM

# For quick reference, copied from above:
Structure (SMILES),cell line,test,test system,setting,how to read,measurement,value
CCn1cc(-c2cc(Cn3ccnc3)cc3c2CCN([C@H](c2cc(OC)ccn2)C2CC2)C3=O)c(C(F)(F)F)n1,TE-11,"cell growth, inhibitor",,120 h,,EC50,3.48 µM
COc1cc2ncnc(Nc3ccc(Oc4ccccc4)cc3C)c2cc1OC,LoVo (KRAS G13D),"cell growth, resazurin",,"1 µM, 72 h, with: 0 nM trametinib",,viability,88.6%
